{"data": "Assay results pooled from the literature", "note": "Compare with care: the assays were run in different laboratories. ± gives the spread as reported."}
{"SMILES": "COCCOCCOCCNC(=O)Cc1cc(CC(=O)N[C@H]2C[C@H]3C(=O)Nc4cc(OCCOCCOCCOC)cc(n4)C(=O)N4CCC[C@H]4C(=O)Nc4cc(OCCOCCOCCOC)cc(n4)C(=O)N4CCC[C@H]4C(=O)Nc4cc(OCCOCCOCCOC)cc(n4)C(=O)N3C2)cc(CC(=O)N[C@H]2C[C@H]3C(=O)Nc4cc(OCCOCCOCCOC)cc(n4)C(=O)N4CCC[C@H]4C(=O)Nc4cc(OCCOCCOCCOC)cc(n4)C(=O)N4CCC[C@H]4C(=O)Nc4cc(OCCOCCOCCOC)cc(n4)C(=O)N3C2)c1", "test": "anion binding, ITC", "system": "water", "conditions": "298 K, together with: sodium sulfate", "endpoint": "ΔH", "value": "1.41 ± 0.0717 kcal/mol"}
{"SMILES": "COc1cc(O)ccc1CCC(c1ccc(O)cc1)c1cc2c(c(C)c1O)OC(c1ccc(O)cc1)CC2 (mixture of isomers)", "system": "human blood", "conditions": "0.3 µM, together with: A23187", "endpoint": "LTB4 level", "value": "2080 ± 1020 pg/mL"}
{"SMILES": "C=CC(=O)Nc1cccc(Cn2ncc3cnc(Nc4cnn(CCOC)c4)nc32)c1", "tested on": "MAP3K1 human", "test": "binding, KINOMEscan", "conditions": "100 nM", "how to read": "lower = stronger binding", "endpoint": "percent of control", "value": "100%"}
{"SMILES": "C[n+]1cccc2cc(/C=N/NC(=O)c3cccc(C(=O)N/N=C/c4ccc5c(ccc[n+]5C)c4)c3)ccc21", "tested on": "telomeric G4 DNA hybrid-2", "test": "FRET melting", "conditions": "1 µM, DNA 0.2 µM", "endpoint": "ΔTm", "value": "7 ± 1.1 °C"}
{"SMILES": "C=C(NC(=O)c1csc(-c2nc3c(cc2O)-c2nc(cs2)C(=O)NC(C(C)O)C(=O)NC(=C(C)OC)c2nc(cs2)C(=O)NC2c4nc(cs4)C(=O)NC(COC(=O)c4c5c6c(cccc6n4O)COC(=O)C(OC4CC(C)(O)C(N(C)C)C(C)O4)C2OC5)c2nc-3cs2)n1)C(N)=O (stereo not shown)", "tested on": "Streptococcus pneumoniae", "system": "-25, immunocompromised mice, lung", "conditions": "2 mg/kg/day thrice daily, 24 h post-dose", "endpoint": "lung bacterial load", "value": "6.14 log10 CFU/lung"}
{"SMILES": "CC[n+]1cccc2cc(/C=N/NC(=O)c3cncc(C(=O)N/N=C/c4ccc5c(ccc[n+]5CC)c4)n3)ccc21", "tested on": "telomeric G4 DNA hybrid-2", "test": "FRET melting", "conditions": "1 µM, DNA 0.2 µM", "endpoint": "ΔTm", "value": "20.3 ± 0.7 °C"}
{"SMILES": "Nc1ncc(-c2cc(-c3cnn(CC(F)(F)F)c3)ncc2F)nc1C(=O)NC1CNCC(F)C1 (stereo not shown)", "tested on": "PIKFYVE", "test": "KINOMEscan", "conditions": "1 µM", "how to read": "baseline: DMSO control", "endpoint": "remaining binding", "value": "81%"}
{"SMILES": "Cc1ncsc1-c1ccc(C(C)NC(=O)C2CC(O)CN2C(=O)C(NC(=O)CCCCCCCCCCN2CCCC(Nc3ncc(Cl)c(Nc4ccccc4S(=O)(=O)C(C)C)n3)C2)C(C)(C)C)cc1 (stereo not shown)", "tested on": "22Rv1", "test": "RNA-seq, item: ZNF81 mRNA", "conditions": "concentration not given", "how to read": "baseline: DMSO", "endpoint": "log2 fold change", "value": -2.89}
{"SMILES": "C[n+]1cc(/C=N/NC(=O)c2cccc(C(=O)N/N=C/c3cc4ccccc4[n+](C)c3)c2)cc2ccccc21", "tested on": "telomeric G4 DNA hybrid-2", "test": "FRET melting", "conditions": "1 µM, DNA 0.2 µM", "endpoint": "ΔTm", "value": "14.4 ± 0.8 °C"}
{"SMILES": "CNS(=O)(=O)Nc1nccc(Cc2c(C)c3ccc(Oc4ncccc4F)cc3oc2=O)c1F", "tested on": "OVISE", "test": "cell viability", "conditions": "7 days", "endpoint": "IC50", "value": "> 1 µM"}
{"SMILES": "O=C(N/N=C/c1ccc2c(ccc[n+]2Cc2ccccc2)c1)N/N=C/c1ccc2c(ccc[n+]2Cc2ccccc2)c1", "tested on": "telomeric G4 DNA hybrid-2", "test": "FRET melting", "conditions": "1 µM, DNA 0.2 µM", "endpoint": "ΔTm", "value": "13.4 ± 0.2 °C"}
{"SMILES": "c1ccc(-c2n[nH]cc2-c2ccnc3ccccc23)nc1", "tested on": "SAK1 (Candida albicans)", "test": "kinase binding, MIB/MS competition", "system": "Candida albicans lysate", "conditions": "10 µM", "how to read": "baseline: DMSO", "endpoint": "log2 fold change", "value": 0.04}
{"SMILES": "CC(C)(C)c1cc(-c2ccc3cccnc3n2)nc(-c2ccc3cccnc3n2)c1.COc1ccncc1.[Cl-].[Cl-].[Ru+2].c1ccc2cc3nc4c5cccnc5c5ncccc5c4nc3cc2c1", "tested on": "B16-F10", "test": "resazurin", "conditions": "together with: light 733 nm, 100 J/cm2", "how to read": "baseline: dark EC50 over light EC50", "endpoint": "phototoxicity index", "value": 39}
{"SMILES": "N=C(N)NCCC[C@@H]1NC(=O)[C@H](CCCNC(=N)N)NC(=O)[C@@H](C(c2ccccc2)c2ccccc2)NC(=O)[C@H](Cc2c[nH]c3ccccc23)NC(=O)[C@@H](C(c2ccccc2)c2ccccc2)NC(=O)[C@@H](CCCNC(=N)N)NC(=O)[C@@H](CCCNC(=N)N)NC1=O", "tested on": "Blastomyces dermatitidis", "system": "BD-2", "endpoint": "MIC", "value": "1 µg/mL"}
{"SMILES": "CC(C)c1ccc(N(C)c2ccc3c(c2)OCC[C@H]3CNc2cnccc2C(=O)O)cc1", "tested on": "SW837", "test": "cell growth or viability, ATP luminescence", "conditions": "7 days", "endpoint": "IC50", "value": "≥ 10 µM"}
{"SMILES": "CN1CCCNC(=O)c2cccc(c2)C(=O)NCCCN(C)CCCNc2cccc3c2C(=O)c2cccc(c2C3=O)NCCC1", "tested on": "SAS", "test": "RNA-Seq, item: IFRD1 mRNA", "conditions": "1 µM, 6 h", "how to read": "baseline: untreated cells", "endpoint": "log2 fold change", "value": -1.1}
{"SMILES": "O=C(N/N=C/c1cc[n+](Cc2ccccc2)c2ccccc12)c1ccc2ccc(C(=O)N/N=C/c3cc[n+](Cc4ccccc4)c4ccccc34)nc2n1", "tested on": "telomeric G4 DNA hybrid-2", "test": "FRET melting", "conditions": "1 µM, DNA 0.2 µM, together with: duplex DNA competitor 10 µM", "endpoint": "ΔTm", "value": "21.2 ± 1 °C"}
{"SMILES": "COC1CN([C@H]2CC[C@H]([C@@]3(C)Oc4c(Cl)cc(C(=O)NCc5c(SC)cc(C)[nH]c5=O)c(C)c4O3)CC2)C1", "test": "RNA-seq, item: SCARF1 mouse homolog", "system": "mouse, HT-1376 xenograft, whole blood", "conditions": "dose not given", "how to read": "baseline: vehicle", "endpoint": "log2 fold change", "value": 0.247}
{"SMILES": "O=C(N/N=C/c1ccc(C[n+]2ccccc2)cc1)N/N=C/c1ccc(C[n+]2ccccc2)cc1", "tested on": "telomeric G4 DNA hybrid-2", "test": "FRET melting", "conditions": "1 µM, DNA 0.2 µM", "endpoint": "ΔTm", "value": "3.9 ± 2 °C"}
{"SMILES": "CC(=O)[O-].O.[Cu+2].[O-]c1ccc(Br)cc1C=NCCN1CCOCC1", "test": "FRAP", "conditions": "200 µM", "endpoint": "ferric reducing power", "value": "55.1%"}
{"SMILES": "O=C(N/N=C/c1ccc(C[n+]2ccccc2)cc1)c1cncc(C(=O)N/N=C/c2ccc(C[n+]3ccccc3)cc2)n1", "tested on": "telomeric G4 DNA hybrid-2", "test": "FRET melting", "conditions": "1 µM, DNA 0.2 µM", "endpoint": "ΔTm", "value": "13.7 ± 1.1 °C"}
{"SMILES": "C=CC(=O)N1[C@@H](c2ccc3c(c2)OCO3)c2[nH]c3ccccc3c2C[C@H]1C(=O)N1CCN(C)CC1", "tested on": "human cyclin E1 N112C-3xFLAG:CDK2", "test": "co-IP with TMT proteomics, item: RPS14", "conditions": "concentration not given, P62263", "how to read": "baseline: wild type DMSO", "endpoint": "relative co-enrichment", "value": "99%"}
{"note": "Repeated from above:"}
{"SMILES": "COc1cc(O)ccc1CCC(c1ccc(O)cc1)c1cc2c(c(C)c1O)OC(c1ccc(O)cc1)CC2 (mixture of isomers)", "system": "human blood", "conditions": "0.3 µM, together with: A23187", "endpoint": "LTB4 level", "value": "2080 ± 1020 pg/mL"}
{"SMILES": "C=CC(=O)Nc1cccc(Cn2ncc3cnc(Nc4cnn(CCOC)c4)nc32)c1", "tested on": "MAP3K1 human", "test": "binding, KINOMEscan", "conditions": "100 nM", "how to read": "lower = stronger binding", "endpoint": "percent of control", "value": "100%"}
{"SMILES": "C[n+]1cccc2cc(/C=N/NC(=O)c3cccc(C(=O)N/N=C/c4ccc5c(ccc[n+]5C)c4)c3)ccc21", "tested on": "telomeric G4 DNA hybrid-2", "test": "FRET melting", "conditions": "1 µM, DNA 0.2 µM", "endpoint": "ΔTm", "value": "7 ± 1.1 °C"}
